Published values gathered from unrelated publications.
Numbered parts are unrelated; each lists some results of a single study.

Sample 1 — technique: protein binding microarray; molecule type: double-stranded DNA, one strand shown; medium: in vitro; concentration: not given; relative to: not given; reading: higher = stronger binding; quantity: E-score
Target: Histone acetyltransferase KAT6A, winged helix 2, GST fusion (KAT6A, Homo sapiens, UniProt Q92794, residues 85-181)
Setting: 8-mer, flanks averaged, mean of 2 arrays, mostly near background
Construct (chain): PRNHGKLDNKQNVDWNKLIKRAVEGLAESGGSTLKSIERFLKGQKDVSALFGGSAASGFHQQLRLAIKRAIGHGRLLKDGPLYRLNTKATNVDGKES
ATTTTTGG: 0.0463
CGTGTGAC: -0.051
TAGCCTGA: -0.113
GAAGTGGC: -0.0423
GCCCTATA: -0.157
GGTATGGA: -0.0136
AGTGAGTC: -0.0549
ATAAGTTC: 0.0484
CAAGTCGA: 0.0146
CAACGAAC: 0.0567
CAAACGAC: 0.23
GCTAGCCA: -0.0495
ACAGCTGG: -0.137
CCAAGAGG: 0.0938
ACGTAATA: -0.227
GACATACA: -0.116
CACGTAGG: -0.178
TACATGTA: -0.185

Sample 2 — technique: RNA Bind-n-Seq; molecule type: RNA; medium: in vitro; concentration: 200 nM; setting: whole 134-nt RNA, ends assumed; with: 150 mM KCl; relative to: input library; reading: higher = stronger binding; quantity: log2 enrichment
Target: Fragile X messenger ribonucleoprotein 1, C-terminal low-complexity region (Fmr1, Mus musculus, UniProt P35922)
All sequences stand within: GGGAGUUCUACAGUCCGACGAUC … UGGAAUUCUCGGGUGUCAAGG
CUCAAGUCCUGUGCUACACAUCGUAUGUACCGAAUCGGUUGGGUUGGUUGGGGAAAGUAUUAUGUUACGCCGUUCGGAUCUGCACUUCCA: 0.261
ACCAUGCAGGUGGGCAUCUUUGGGAAGUGGGGCAAGGGGGGGAUAGGGAGGGGGGUAACACUUUGGGAACAAAAGGUCCCAGGUCGUUUC: 0.835
UAACUUUAGAGGAGGAUCUGAUGGAUAUGGCAGUGGACGUGGAUUUGGGGAUGGCUAUAAGGGGUAUGGAGGAGGACCUGGAGGUGGCAA: 0.294
UGGGAGGUGGAUUUUGUUUAUUUUUUUCGCUCAUUUCCAGGGGUGGGAAUUUUUUUUUAAUAUGUGUCAUGAAUAAAGUUGUUUUUGAAA: 0.25
CUGUGCUACACAUCGUAUGUACCGAAUCGGGCCCCCCGGGGCCCCCCGGGGCCCCCCGGGGAAAGUAUUAUGUUACGCCGUUCGGAUCUG: -1.41
UCCUCAAGUCCUGUGCUACACAUCGUAUGUACCGAAUCGGAAAGGUGGAGGAAAGUAUUAUGUUACGCCGUUCGGAUCUGCACUUCCAGC: -0.53
AGUCCUGUGCUACACAUCGUAUGUACCGAAUCGUGUGUGUGUGUGUGUGUGUGUGUGAAAGUAUUAUGUUACGCCGUUCGGAUCUGCACU: 0.602
CACAGACAACACGCACCCACACAGACACAGAGGGAAGGGGUUGGGAUGGGGACAGGGUGCACAGCAGGGCGGGGUAGGACCCCAGCCCGU: 1.33
GCAAAAAGUAAAAACAAAUGGAAAUGCUUCGGAUAGUGGCAGGGGUGGGGGUUGCUAAGGAAAGGGUGGGAUGGGAGUGGGUAAAGAGUU: 0.534
CAAGUCCUGUGCUACACAUCGUAUGUACCGAAUCGGAAAAAGGAGGAAAAAAAGGAAAGUAUUAUGUUACGCCGUUCGGAUCUGCACUUC: -0.631
CCUCAAGUCCUGUGCUACACAUCGUAUGUACCGAAUCGGAGGGAGGGAGGGGAAAGUAUUAUGUUACGCCGUUCGGAUCUGCACUUCCAG: 0.905
CAAGUCCUGUGCUACACAUCGUAUGUACCGAAUCGGGUUUGGGAAAAAGGGAGGGAAAGUAUUAUGUUACGCCGUUCGGAUCUGCACUUC: 1.07
CCUGUGCUACACAUCGUAUGUACCGAAUCAAAUUUUUUUAAACCCCCAAAUUUUUUUAAAAAAGUAUUAUGUUACGCCGUUCGGAUCUGC: 0.0532
UCAAGUCCUGUGCUACACAUCGUAUGUACCGAAUCGGGAAAGGGAAAGGGUGGGAAAGUAUUAUGUUACGCCGUUCGGAUCUGCACUUCC: 1.09

Sample 3 — technique: RNA Bind-n-Seq; molecule type: RNA; medium: in vitro; concentration: 365 nM; relative to: no-protein control; reading: higher = stronger binding; quantity: RBNS enrichment (R)
Target: RNA binding protein fox-1 homolog 2, RRM domain, GST-SBP tag (RBFOX2, Homo sapiens, UniProt O43251-10, residues 100-194)
Setting: natural RNA segment, single round, ends assumed
All sequences stand within: GGGAGUUCUACAGUCCGACGAUC … UGGAAUUCUCGGGUGCCAA
Residues (chain): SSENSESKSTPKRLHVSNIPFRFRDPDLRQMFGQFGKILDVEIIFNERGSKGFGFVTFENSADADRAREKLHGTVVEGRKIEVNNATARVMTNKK
GCGGCUGACCUCCAUGAUCGGACGUUGCCGCCUCUGUGUACAUUAUUUUCCUUACUGAAAUCAAGUGUUUGACUUUUUACAAAAGUGAAACCUUACCCGAGAGGAGUUUC: 0.28
AACUACAUGCAUCUGUGAAAACAUGUGUAUUUAUGAAGGUGGACUUGAAGCUGCCCAGGAUUUUAACAGUCCAGUUCUACUGUAGCAACAUAGCAAAAAGAAAGUGGCUA: 0.266
CUAGAAAAAAAAAAAAAAAAGCCCUUUUCAGUUUGUGCACUGUGUAUGGUCCGUGUAGAUUGAUGCAGAUUUUCUGAAAUGAAAUGUUUGUUUAGACGAGAUCAUACCGG: 0.888
GAAGGACGCUGUCCAGCUAGAGACGCUGGAGCUCCCCCCCGGCUGUGUCCGCAGAGCCGGGGCCGGGGACUUCAUGCGCUACCACUACAAUGGCUCCUUGAUGGACGGCA: 0.303
UUAUUCUACCCUAUUUUAUAAUGCAGGACUUUUGUAAUGUUGUUUAAAUGAGGAAAAAUUUCUGUCAAAUUAGCCUAGUAAAAUUUCUGAUCGUUCAUUAUAAAGGCAGC: 0.472
GUGUGUGUGGACUGGUUAUAGAUUUAUAACUAUGCAGGGUUAAUUAUCCAAUCUUUUUUUUUUGUAUUUAAAGAUCACAGGUAGAUAGAUGUAAGACAUUUGAUCCCCUG: 0.9
AUUGUUGGCAAUAUAAUCUUGAGAGGCUGGUGGGACUUGGGGAAGGAGCAGGGACAGACAUCUGUUGGUAUUGCCCAGCUCCUGUAUCUGUGAUACAUUCCCUGGCUGAG: 0.374
AUUUUACUCCUGGAUGUAUUGAAUGCCCCUUGAGCUUUAUGAGAUACGAGUCCACAUGGAUAAAAUGUUAGAGAGUGGAGUUCUACAGAGGAUUCCAGGAAGAGGCCAUG: 1.57
UACCACGGCUACCAUGUGGAACCUUAACUUGCAGAAGGCUUGUUAACAAUUGUUUUGAGAGAGAUGGCUGGUCAUGCCACAGCUGCUGGGGACUCCGCCUACUCCAGCCC: 0.535
UUGGCACGGUGCUGCAUCCUUCUACUGCUCCCUCCAGGUCUGGGGGCUUUUAUCCACCUUGAAUCCCUAUCCUCCUCUUUGUAGUUGUCGGUCUCACUGAUAACAGCUCC: 0.724
AUUAUAAUUAUGGACACUGCAUCAGUAUACAUAACAUGAAGGAAUAAAAAGGAUACAGAAUUGUAUAUACAUACUUACUGUAACACAUCUAAAAAAAUGUAUAUGGGUAA: 0.402
ACUGGGCCCUGCCCAGCCCCGGAACUCUGCGCGAUAUCAAUACUGGCUAUUUUCUCUUCUCGCCGUAGUGCCGUUGGUUUCACAUGAUUGCACUUUUGUGGGUCGCAAGG: 0.341

Sample 4 — technique: RNA Bind-n-Seq; molecule type: RNA; medium: in vitro; concentration: not given; relative to: input RNA pool; reading: higher = stronger binding; quantity: bound/input enrichment
Target: RING finger protein unkempt homolog, zinc fingers 1-6, GST-SBP tag (UNK, Homo sapiens, UniProt Q9C0B0, residues 30-357)
UniProt Q9C0B0, sequence (30-357, looked up): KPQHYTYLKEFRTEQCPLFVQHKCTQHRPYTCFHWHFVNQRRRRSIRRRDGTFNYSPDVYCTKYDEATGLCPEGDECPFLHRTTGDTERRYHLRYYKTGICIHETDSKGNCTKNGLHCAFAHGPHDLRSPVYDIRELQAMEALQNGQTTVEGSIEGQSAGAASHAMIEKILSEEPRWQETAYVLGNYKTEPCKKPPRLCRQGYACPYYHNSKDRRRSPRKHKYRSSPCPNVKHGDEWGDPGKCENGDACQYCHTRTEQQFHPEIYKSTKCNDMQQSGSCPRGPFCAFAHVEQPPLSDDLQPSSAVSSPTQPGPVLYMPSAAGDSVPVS
Setting: RNA with constant flanks, human and mouse sites, ends assumed
All sequences stand within: GGGAGUUCUACAGUCCGACGAUC … CAACAGAGGAUUGAGCAUCA
AAUAAGCCCUGCCCAGUAUGUAGACAACCAAUUCAAAUGAUUGUGCUAACUUAUUUCCCCUAGUUGACCUGUCUAUAAGAGAAUUAUAUAUUUCUAACUAUAUAACCCUAGGAAUUUAGA: 3.49 ratio
CCAAGUGGACUGUUUCUGGCCUCGAGUCCGCUGCUGCCCAGCAUACACUUCUGGAGCAGCCUUAGUCCUGUCGCCCCACUGAGUCCUGCCAGGCUGCAAGGGCCGAACACACUUUUCCAG: 0.164 ratio
ACAGGCCGUGGUUAGGAAGGACGGAGAAGGGGCGUUCGCUCCUUUGGGACUUUUCAUGCCUCGUUUUUUUUUCAGAUGUGGCUUGGUCUGGGCGCAAGGUCCCAGCAGCCAGCUUAAGCU: 0.115 ratio
CCUCUGGCCACUUAUGCCCCUGUCAUCUCUGCUGAGAAAGCCUACCAUGAGCAGCUUACAGUAGCAGAGAUCACCAAUGCCUGCUUUGAGCCAGCCAACCAGAUGGUGAAAUGUGACCCU: 0.151 ratio
GGACAUCUCCAGUCAGAAAGUGGAGCAGUUCCGAAGAGGAAAGACCCCUUAACACAUGCUAGUAAUUCAUUGCCUCGAUCAAAAACUGUCCUGAAAAGUGGCUCCGCAGGGCUCUCCGGU: 0.977 ratio
GAAAGGCCGGACCUCAGGGAAAAGGUCAUUAAAGGGGCAGAGAUCCUUGAAGUGUUGCACAGUCUUCCAGCAGUUCGGCAGUAUCUGUUUUCUCUCUAUGAAUGCCGUUAUUCAGUUUUU: 0.113 ratio
AUUAAAAAUGCCUGUUUACAAACGUCUUCCCUUGCUGUCCGUGUGAAUUCAUUAGUGUGCUUAGGGAAGAUCCUGGAGUACCUGGAUAAGUGGUUUGUGCUUGAUGAUAUCCUACCCUUC: 0.113 ratio
CUCUAUUUCACUGGGAGUGAUAUUUUCAAUAAGAAUAUGAGGGCUCAUGCCCUAGAAAAGGGUUUCACAAUCAAUGAGUACACCAUCCGUCCCUUGGGAGUCACUGGAGUUGCAGGAGAA: 0.216 ratio
UCUUGUAGAAGAUGGACUCUGAAAAACAUUCCAGGAAACCAUGGCAGCAUGGAGAGCCUCUUAGUGAUUGUGUCUGCAUUGUUAUUGUGGAAGAUUUACCUUUUCUGUUGUACGUAAAGC: 0.515 ratio
GACUUUGGAACUGGUCCUCGUAAUGCAGCCUACUAUAGCCCUCAUGGACAUAUAUUAGUAUUAGCUGGAUUUGGAAAUCUGAGGGGACAAAUGGAAGUGUGGGAUGUGAAAAACUACAAA: 0.482 ratio
UAGUCCUCCAAGAAGAAAGCACCAAGACAACAUUUCAUAUGACUAUAAUGCAUGUACUAUAUAAGCUGAUCUGGCUUUGAAAGAUGUGAGUUGGCAAGUUCCUCACAUAGAGUCAUUGUA: 0.234 ratio

Some of these lines once more (sample 1):
ACAGCTGG: -0.137
CCAAGAGG: 0.0938
ACGTAATA: -0.227
